Experimental data collected from several papers.
Each numbered part is a random draw from the data of one study; scales do not carry over between parts. Changes are numbered by the printed parent chain.

Set 1
Target: ABI1, truncated, D143A, DHFR fusion (Arabidopsis thaliana)
Method: DHFR PCA, deep sequencing
Matrix: yeast
Setting: methotrexate growth selection, single substitutions
Added: (+)-ABA 0.11 µM
Reference: wild-type fitted maximum
Direction: higher = stronger binding
Parent: PYL1, truncated, DHFR fusion (Arabidopsis thaliana); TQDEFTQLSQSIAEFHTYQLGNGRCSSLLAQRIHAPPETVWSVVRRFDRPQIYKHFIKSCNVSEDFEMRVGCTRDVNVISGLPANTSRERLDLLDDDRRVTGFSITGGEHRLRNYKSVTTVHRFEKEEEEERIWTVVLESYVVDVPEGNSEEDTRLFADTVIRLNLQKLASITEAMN; partner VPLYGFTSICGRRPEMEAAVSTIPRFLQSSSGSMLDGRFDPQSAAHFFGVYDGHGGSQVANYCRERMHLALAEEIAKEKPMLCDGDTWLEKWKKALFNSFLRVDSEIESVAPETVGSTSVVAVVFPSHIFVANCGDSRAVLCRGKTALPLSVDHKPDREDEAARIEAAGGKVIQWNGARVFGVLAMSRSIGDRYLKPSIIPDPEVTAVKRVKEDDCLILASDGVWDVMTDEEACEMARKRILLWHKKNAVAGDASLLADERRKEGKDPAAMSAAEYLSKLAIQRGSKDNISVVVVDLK
`F103P`: “relative binding score” -6.36%.
Under “relative binding score”, `R49Y` is recorded as -3.09%.
Under “relative binding score”, `L112E` is recorded as -4.29%.
`D96L`: “relative binding score” -4.64%.
`V143L` — result for “relative binding score”: 0.0827%.
For `D75V`, “relative binding score” read 46.2%.
`I79A`: “relative binding score” 18.4%.
`V121L` — result for “relative binding score”: 9.27%.
`R99C`: “relative binding score” 16.5%.
`L8N` — result for “relative binding score”: -3.39%.
For `Q7A`, “relative binding score” read 42.3%.
For `T6G`, “relative binding score” read 34.6%.
For `S63M`, “relative binding score” read 3.93%.
`D65L` — result for “relative binding score”: 0.5%.

Set 2
Target: RING finger protein unkempt homolog, zinc fingers 1-6, GST-SBP tag (UNK, Homo sapiens, UniProt Q9C0B0, residues 30-357)
Method: RNA Bind-n-Seq
Form: RNA
Matrix: in vitro
Concentration: not given
Setting: RNA with constant flanks, human and mouse sites, ends assumed
Reference: input RNA pool
Direction: higher = stronger binding
Construct (chain): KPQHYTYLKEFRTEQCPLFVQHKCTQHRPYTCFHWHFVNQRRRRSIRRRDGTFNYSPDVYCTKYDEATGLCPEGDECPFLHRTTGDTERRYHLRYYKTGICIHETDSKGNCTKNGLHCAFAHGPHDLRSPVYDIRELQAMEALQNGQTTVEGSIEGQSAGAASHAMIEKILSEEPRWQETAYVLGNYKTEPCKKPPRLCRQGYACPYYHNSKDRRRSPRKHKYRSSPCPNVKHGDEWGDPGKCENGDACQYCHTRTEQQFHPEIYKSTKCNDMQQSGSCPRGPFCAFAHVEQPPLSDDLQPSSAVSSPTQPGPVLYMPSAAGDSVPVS
`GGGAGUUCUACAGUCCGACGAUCAGUUUUUCUGCUUCCAAAAUAUUUAUUUCUGCAUUAGCCAUGGAAGGACAGCAACUUUUAGUAGCAUAUCCUUGCGCUUUGUUAUAUGGAGUCUUUGCCCUGAUUUCCGUCUUUUGAAAACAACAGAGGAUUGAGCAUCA` has a bound/input enrichment of 0.296 ratio.
With `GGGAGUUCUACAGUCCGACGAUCAGGCGGCCGUCAUGGCGGUGUCGGAGAGCCAGCUCAAGAAAAUGGUGUCCAAGUACAAAUACAGAGACCUAACUGUACGUGAAACUGUCAAUGUUAUUACUCUAUACAAAGAUCUCAAACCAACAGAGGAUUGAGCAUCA` the bound/input enrichment was 0.0651 ratio.
`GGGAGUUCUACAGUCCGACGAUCGCCCGCGUGCGCCAUCCCCUCAGCUAGCAGGUGUGAGAGGCUUUCUACCCGCGGUCUCCACACAGCUCAACAUCUUGCCGCCUCCUCCGAGCCUGAAGCUACCGUGGACUCUGCUGUGGCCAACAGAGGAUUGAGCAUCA` gave a bound/input enrichment of 0.332 ratio.
The bound/input enrichment of `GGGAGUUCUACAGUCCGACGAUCGAUGUGGCAGCAAGAAACUCAAAUGUGCAUUUGUAACUGAAUUGAACACUUGUCAUGCUGUAGAUGCCAGCCCAUCAAUAGUAGAGCUUAUGAGACUCAUUUAAACUGUCUUUGGUUUAACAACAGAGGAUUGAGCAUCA` is reported as 0.202 ratio.
`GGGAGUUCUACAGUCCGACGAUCAAGAUUCACCAAGAAACCUUUGGCAAGAGUGGAUGCCGUCGCAUCGUUCCUGGCCAGUUCUUAGCUGUGGAUCCCAAAGGGCGAGCCGUUAUGAUUAGUGCCAUUGAGAAACAGAAAUUGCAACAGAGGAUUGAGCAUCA` gave a bound/input enrichment of 0.374 ratio.
`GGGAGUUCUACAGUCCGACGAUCUCUGAGAAUUACAAACAGAAGAUAGAAAGAAGUCUUAAAGCUGGUACAGUUAAAGAAUGUAUUAGUCUCAGAAGCUGUGUAUGUUUAUGUGAUAGAAUCUAAAUAAAAUACAGACAUCUACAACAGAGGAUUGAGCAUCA` gave a bound/input enrichment of 0.264 ratio.
For `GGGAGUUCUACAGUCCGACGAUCGAAUCCUGACUGUUUGGGACAUGCAGAGCUUGUCUAUGAGUAUACACUGGGUGAGGAGAAGUUCACCUUUAUUGAGAAGUGUAACAAUCCCCGUUCUGUCACUUUACUGGUUAAAGGACCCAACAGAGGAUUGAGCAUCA`, the bound/input enrichment was 0.0561 ratio.
The bound/input enrichment of `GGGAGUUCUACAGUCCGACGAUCUGGUUACACUAGAAGUCAAGCCCAUUAGGGAUUUUCAUUUUUUUUCAUUUGGUUGUUGAGAAGUUUCAAAAAUCAGUUUUCAAGCUGUGGUCUUUCAAACACAUCUGCACAUAAGUCACACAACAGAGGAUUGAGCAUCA` is reported as 3.18 ratio.
For `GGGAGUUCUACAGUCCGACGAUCGAUGUAACUUAAGUGACUGUGAUCCUUUGUCUACCUUUCAGGAUCCCAUCAAAUGGGAUUUAGUUGCUAGAAAGAUACUUGACAGUCUGAAGGCACAGGUGAUAAGAUUUUGUUCUCUGUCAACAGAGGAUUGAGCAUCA`, the bound/input enrichment was 0.194 ratio.
`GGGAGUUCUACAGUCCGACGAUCUCCUAAUACUCCACAUUCAAACUGAAGAGGAAAAUUGAAAUCUCUAAUGAAGCUGCUGUGUGUAUUUAUGAAUAUUAAUGAAUAAAAACUGCUUGGAUGGUUUACCUAACUACUGCAUGACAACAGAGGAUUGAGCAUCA` gave a bound/input enrichment of 1.36 ratio.
`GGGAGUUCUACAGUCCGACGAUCCUGCCACCUUCCCUCCUGUAAUUAUUUUCUAUUUUUGUAAACUUGUUGCAUUUUUAUAUGAUUUUCUUGACUGCACGUUGGCCAGAAGGACUGCUGGCCUGGCCUCCUUUCCGUCCGGGCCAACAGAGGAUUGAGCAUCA` has a bound/input enrichment of 2.34 ratio.

Set 3
Target: CCND2, cyclin fold, Cln2 fusion (human)
Method: yeast growth competition, sequencing
Matrix: yeast
Setting: weak parent motif
Reference: not given
Direction: higher = stronger binding
Parent: E2F1 docking peptide (human); PPVKRRLDLETDH; partner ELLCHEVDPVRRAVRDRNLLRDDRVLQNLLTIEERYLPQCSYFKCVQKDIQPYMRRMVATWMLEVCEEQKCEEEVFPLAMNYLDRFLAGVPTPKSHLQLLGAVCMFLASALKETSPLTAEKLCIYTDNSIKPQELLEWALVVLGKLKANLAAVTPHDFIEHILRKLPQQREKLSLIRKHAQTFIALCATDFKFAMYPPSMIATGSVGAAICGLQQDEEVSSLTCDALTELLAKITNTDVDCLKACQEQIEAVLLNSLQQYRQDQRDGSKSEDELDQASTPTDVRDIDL
Under “normalised enrichment score”, `PPVKRNLDLETDH [R6N]` is recorded as 0.404.
`PPVKRRLDLETDG [H13G]` — result for “normalised enrichment score”: 0.266.
Under “normalised enrichment score”, `PPHKRRLDLETDH [V3H]` is recorded as 0.0536.
For `PPVKRRLDLATDH [E10A]`, “normalised enrichment score” read 0.553.
`PPVKRRDDLETDH [L7D]` — result for “normalised enrichment score”: 0.196.
`PIVKRRLDLETDH [P2I]` — result for “normalised enrichment score”: 0.13.
`PPVKRRLDLTTDH [E10T]`: “normalised enrichment score” 0.221.
For `PPVKRRLDLETLH [D12L]`, “normalised enrichment score” read 0.354.
`NPVKRRLDLETDH [P1N]` — result for “normalised enrichment score”: 0.347.
For `PPWKRRLDLETDH [V3W]`, “normalised enrichment score” read 0.095.
`PPVKRRLDLETVH [D12V]` — result for “normalised enrichment score”: -0.0995.
`PPVKRRLDLDTDH [E10D]` — result for “normalised enrichment score”: 0.649.
`PPVKPRLDLETDH [R5P]` — result for “normalised enrichment score”: -0.465.
`PPVWRRLDLETDH [K4W]` — result for “normalised enrichment score”: 0.335.
`PCVKRRLDLETDH [P2C]` — result for “normalised enrichment score”: -0.11.
`PPVKKRLDLETDH [R5K]` — result for “normalised enrichment score”: 0.309.
Under “normalised enrichment score”, `PPVCRRLDLETDH [K4C]` is recorded as 0.358.

Set 4
Target: Interferon regulatory factor 5, full length, phosphomimetic (IRF5, Homo sapiens, UniProt Q13568-2, residues 1-514, S451D/S453D/S456D/S462D)
Method: protein-binding microarray
Form: double-stranded DNA, one strand shown
Matrix: in vitro
Concentration: 940 nM top
Setting: 60-bp whole probe
Added: salmon DNA 0.4 mg/ml
Reference: random background probes
Direction: higher = stronger binding
Constant ends, left off below: GCCTAGCAC … GTCTTGATTCGCTTGACGCTGCTG
Under “fitted relative affinity”, `GTAGGTTTCGACTTTCGGTTAGTGCTA` is recorded as 8.85 z-score.
For `TTTGGTTTCGACACTGGGTTAGTGCTA`, “fitted relative affinity” read 11.1 z-score.
`GACGATATCAGTTACGAGACGTGCTAG` — result for “fitted relative affinity”: 0.0421 z-score.
`TTAGAACTGGAGACTGGATTAGTGCTA` — result for “fitted relative affinity”: -0.516 z-score.
`GACGGTCTCGGCCTGGGGACGTGCTAG` — result for “fitted relative affinity”: 1.41 z-score.
`GACCGTTTCGGTTCCGGGACGTGCTAG`: “fitted relative affinity” 7.56 z-score.
Under “fitted relative affinity”, `GACGGTTTCGGTCCCGGGACGTGCTAG` is recorded as 13.6 z-score.
`TTGGCTTATTCCAGATTTTTGTGCTAG` — result for “fitted relative affinity”: 0.26 z-score.
Under “fitted relative affinity”, `GACGTTATCGGACTGGGGACGTGCTAG` is recorded as -0.292 z-score.
Under “fitted relative affinity”, `TCAAATATTTACCTCTCACTGTGCTAG` is recorded as 0.78 z-score.
Under “fitted relative affinity”, `GAGGGTATCCTACTGCTGACGTGCTAG` is recorded as -0.443 z-score.
Under “fitted relative affinity”, `GTAGGTTTCCTTTTCCTTTAGTGCTAG` is recorded as 2.12 z-score.
`GACGGTCTAGGTATCGGGACGTGCTAG`: “fitted relative affinity” 0.868 z-score.
`TTAGGTCTCGGTCGCGGTTAGTGCTAG`: “fitted relative affinity” 5.04 z-score.
`GCCGGTTTCGGTTTCGGGACGTGCTAG`: “fitted relative affinity” 15.4 z-score.
`TTAGGATTCGACTATCGGTTAGTGCTA` — result for “fitted relative affinity”: 0.842 z-score.
`GACGGACTGGTTTTCCTGACGTGCTAG` — result for “fitted relative affinity”: -0.0465 z-score.
`TTAGAACTGGGGACTGAATTAGTGCTA`: “fitted relative affinity” 0.0729 z-score.
`TTAGGTCTCCTGCTGCTTTAGTGCTAG` — result for “fitted relative affinity”: -0.275 z-score.

Set 5
Target: Sal-like protein 4, full length isoform B (SALL4, Homo sapiens, UniProt Q9UJQ4-2, residues 1-616)
Method: universal PBM
Form: double-stranded DNA, one strand shown
Matrix: in vitro
Concentration: not given
Setting: 8-mer, flanks averaged, mean of replicates
Direction: higher = stronger binding
With `AAGTTCAC` the E-score was -0.124.
For `CTGAATCC`, the E-score was -0.0469.
With `ATCTCTTA` the E-score was 0.0852.
The E-score of `AATAAAAT` is reported as 0.431.
For `GCAAAACC`, the E-score was -0.0949.
With `AAATAAAC` the E-score was 0.312.
`AGTCGGTA` gave an E-score of -0.105.
With `AAAGCCTG` the E-score was -0.054.
`GAGACATC` has an E-score of -0.138.
For `AGCCCATG`, the E-score was -0.148.
The E-score of `GTTCCTGA` is reported as -0.18.
`ACCTATTG` has an E-score of 0.208.
The E-score of `GTCTAAAC` is reported as 0.0215.
`ACTTCGGC` gave an E-score of -0.0956.
The E-score of `AATTTTCT` is reported as 0.191.
`TCACCCAA` gave an E-score of 0.112.
`ACAATAAT` gave an E-score of 0.426.
